Measured values of several laboratories.
Every numbered part comes from another study and shows a few of its results, in no order.

Study 1 — method: RNA Bind-n-Seq; molecule type: RNA; medium: in vitro; concentration: not given; reference: input RNA pool; direction: higher = stronger binding
Target: RING finger protein unkempt homolog, zinc fingers 1-6, GST-SBP tag (UNK, Homo sapiens, UniProt Q9C0B0, residues 30-357)
Setting: RNA with constant flanks, human-mouse chimeric sites, ends assumed
Construct (chain): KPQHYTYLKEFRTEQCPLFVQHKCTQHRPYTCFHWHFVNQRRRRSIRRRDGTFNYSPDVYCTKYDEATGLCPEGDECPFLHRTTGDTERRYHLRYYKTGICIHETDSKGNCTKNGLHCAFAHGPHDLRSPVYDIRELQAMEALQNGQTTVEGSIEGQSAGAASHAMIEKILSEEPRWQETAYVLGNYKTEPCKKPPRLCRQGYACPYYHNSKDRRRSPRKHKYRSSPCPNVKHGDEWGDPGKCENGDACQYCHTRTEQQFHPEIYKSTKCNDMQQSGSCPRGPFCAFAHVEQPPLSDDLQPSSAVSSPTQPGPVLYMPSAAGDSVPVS
Oligonucleotide | bound/input enrichment
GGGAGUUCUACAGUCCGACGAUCUGACAAGGGCACUGCAGAGCCAUGCCUUUCUUGGACAUCCAGAAAAGGCUGGGCAUCAGCCUGGACCGGCACUUUAUGUUCCUAAGCGCAGAACAGCCCUAUAAGAACGCCGCUCGGUGCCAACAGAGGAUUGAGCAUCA | 0.0547 ratio
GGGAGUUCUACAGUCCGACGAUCACUCAGAGAUCCACCUCCCAAAGUGCUGGGAGUAAAGGUGUGGCCACCACACCUAACUUCAUAGACAUAUAUUUUUUUUAAUAUGAAUCUUCCUGUUCGUCCAGGGAAGAAAGAUUUGUUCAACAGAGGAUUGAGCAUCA | 5.43 ratio
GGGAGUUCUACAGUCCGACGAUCCCUCCCCCGGGCCACCCGCCCGCCCAAGCUCCCCGCCGAGAUCCAGGUUUCUUCUUAUUUCAUAGCAAAUAAGAAAAAUGUUCUACGCACAUUUUGUCCUCAGUAAACGAGGGCCUCUGGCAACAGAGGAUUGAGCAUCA | 2.64 ratio
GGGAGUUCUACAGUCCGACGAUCCGCUGGCCCAAGCUGAUGGACUCUGAUCUUGAUCUCUUCUCAGGCACGUGUGCCUUCUCUUAGUUAUUGUUUUCGGGAUGUUAUGAAUCUCAGUACUGUGGUUUGAAAGCACCAGCUUUGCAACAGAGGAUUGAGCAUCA | 4.13 ratio
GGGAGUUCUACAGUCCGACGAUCCCAAUUGUGGAGCAGUACUUGAAGACAAAGAAAAAUUCUAAUAAUUUAAUCAUGAAAUACAUUAGCUGCCGCCUGCUGACACUCAUCAUUAUACUGUUAGCGUGUAUCUACUUGAGCUAUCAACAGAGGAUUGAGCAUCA | 0.631 ratio
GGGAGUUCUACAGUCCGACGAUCAAAGAGUGGAUAGAAUGUGCACACGGGAUCGGUGGGACCCGGGCGAAAAAGGAGUGCAAGAUAGAGUUCGAUGACUUCGAAGAGUGCUUGCUUCGGUACAAAACGAUGAGGCGAAUGCAUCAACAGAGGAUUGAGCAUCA | 0.317 ratio
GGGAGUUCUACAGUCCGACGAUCGAGUCGAGCAAACUUGAAACUACAGAAUAUCUUGCAGCCUCAGUGUUCACUUGCUUGGCGAUAGCAUUGGGGUUUUAUAGGUUCUGGAAGGAGAACUUUAAUGCUCACUGCCGCUGCUGCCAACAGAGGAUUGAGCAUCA | 0.13 ratio
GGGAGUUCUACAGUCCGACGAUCUAAGUCCAUUUGUAAGCCUUCGCUCAUAAAGUUUUAAAUUCUGGACCAAUAGUGUUUGUUUCCUGAUUAUUGUAUCCAAUACUUUGCCUAGUAUGUAACUCAUGCUUACUGAUAAUAAAACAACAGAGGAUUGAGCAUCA | 0.551 ratio

Study 2 — method: RNA Bind-n-Seq; molecule type: RNA; medium: in vitro; concentration: 365 nM; reference: no-protein control; direction: higher = stronger binding
Target: RNA binding protein fox-1 homolog 2, RRM domain, GST-SBP tag (RBFOX2, Homo sapiens, UniProt O43251-10, residues 100-194)
Setting: natural RNA segment, single round, ends assumed
Target sequence (chain): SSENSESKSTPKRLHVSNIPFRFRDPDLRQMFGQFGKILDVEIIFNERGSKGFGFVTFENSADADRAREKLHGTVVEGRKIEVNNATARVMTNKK
Oligonucleotide | RBNS enrichment (R)
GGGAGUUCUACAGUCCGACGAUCAAUUACUAACUUCUAAAACUGUACUUUGAUUCACAUGUUUUCAAAUGGAGUUGGAGUUCAUUCAUAUUACAAUAUUUGUGUGCUAAACGUGUAUGUUUUUCAGUUCAAAGUGGAAUUCUCGGGUGCCAA | 0.385
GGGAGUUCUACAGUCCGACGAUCUUUUCUUCCCUAGAGGCAUUGAGGGCAAUUGCACUUUGGCUCUCUCAAGAUGUGUCAUUUUCAGACAUUCUUCAUGUCAGAAGAGCUUUUGUUGUAAGGAGAAAACCAGCUGGAAUUCUCGGGUGCCAA | 1.66
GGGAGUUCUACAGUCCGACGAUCAAGUUCAGCUCAAGACUACCCUACCUGCUGUGUUUGUGAGAAGAGUAGGAUCACACACACAGGUGCAAUCUUGACCACACUUACCUGCAAGAGGAGUAACCAGAGGACACUGGAAUUCUCGGGUGCCAA | 0.65
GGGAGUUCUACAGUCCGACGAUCAUGGUUACACCAUCACCCCCAACACCCUCAAGACCCUGGUGCUGGUAGGCUGUUUCACCGUCUUCUGGACUGUUUACUACAUGCUGGAAGUAUAUUUGAGCCAGAGGAAUUGGAAUUCUCGGGUGCCAA | 0.999
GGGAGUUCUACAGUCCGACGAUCUUGACUCGGGUACAAUAAAACUCUCAACACACACAAAGCCCAUCAGGCAAGAGUACAGUAAGCCUAAGGGGACUUGCUGCUCAAACCAAAAAUUAACUCUGAAGGUCAGUUGGAAUUCUCGGGUGCCAA | 0.631
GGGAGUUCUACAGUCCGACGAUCAAAGCUACAAAUAACACUUACUUUGAAUCCUGCUGUCAAAUGUCUGCAUCAAGAUAGCACCCCUUUGUGGGAGGCCCUGAGUAUCUUCUCUUCCUCUACUGCCUAACUGUUGGAAUUCUCGGGUGCCAA | 0.885
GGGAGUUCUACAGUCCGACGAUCCUGCUUCUGGAAGGGCUAUCCUGGGGGUGAACUUGAAACUCUCAUCAGGCUUCUGCAAAAGCUCUUCUUCCUGAAGACAGACCCAGCCUUUGUGCUCUCACCCUCCACUCUGGAAUUCUCGGGUGCCAA | 0.325
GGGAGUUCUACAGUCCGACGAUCACAAGAUUGAUUUGUAAAACCCUUGAAAUGUAGAUUUCUUGUAGAUGUAUCUUCACGUUGUAAAUAUGUUUUGUAGAGUGAAGCCAUGGGAAGCCAUGUGUAACAGAGCUUGGAAUUCUCGGGUGCCAA | 0.39

Study 3 — method: RNA Bind-n-Seq; molecule type: RNA; medium: in vitro; concentration: 200 nM; setting: whole 134-nt RNA, ends assumed; together with: 150 mM KCl; reference: input library; direction: higher = stronger binding
Target: Fragile X messenger ribonucleoprotein 1, C-terminal low-complexity region (Fmr1, Mus musculus, UniProt P35922)
Oligonucleotide | log2 enrichment
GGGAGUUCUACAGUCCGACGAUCCUGUGCUACACAUCGUAUGUACCGAAUCGGGGUUUGGGGUUUUUUUGGGGUUUUUUUGGGGAAAGUAUUAUGUUACGCCGUUCGGAUCUGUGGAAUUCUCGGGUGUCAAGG | 0.0991
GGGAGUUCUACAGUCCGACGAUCUCCUGUGCUACACAUCGUAUGUACCGAAUCGGGGAAAAAAGGGAAAAAAGGAAAAAAGGAAAGUAUUAUGUUACGCCGUUCGGAUCUGCAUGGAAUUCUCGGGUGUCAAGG | -0.245
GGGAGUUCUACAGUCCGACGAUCCUCAAGUCCUGUGCUACACAUCGUAUGUACCGAAUCGGAAAGGAGGAAAAAGGAAAGUAUUAUGUUACGCCGUUCGGAUCUGCACUUCCAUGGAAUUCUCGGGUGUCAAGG | -0.151
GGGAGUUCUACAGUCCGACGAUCCUGUGCUACACAUCGUAUGUACCGAAUCGGGUUUUUUUGGGGUUUUUUUGGGUUUUUUUGGAAAGUAUUAUGUUACGCCGUUCGGAUCUGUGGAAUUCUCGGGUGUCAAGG | -0.63
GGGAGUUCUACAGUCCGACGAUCAGUCCUGUGCUACACAUCGUAUGUACCGAAUCGGCCCCCGGCCCCCGGGCCCCCGGGAAAGUAUUAUGUUACGCCGUUCGGAUCUGCACUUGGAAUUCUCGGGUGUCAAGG | -0.367
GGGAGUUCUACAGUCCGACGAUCUGGCCCUGUUGGCAUGCGGGGAGGAAGAGGUGGCCUCAUGGAUCGUGGUGGUCCCGGUGGAAUGUUCAGAGGUGGCCGUGGUGGAGACAGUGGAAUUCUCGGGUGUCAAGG | -0.0981
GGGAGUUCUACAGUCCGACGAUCACCAUGCAGGUGGGCAUCUUUGGGAAGUGGGGCAAGGGGGGGAUAGGGAGGGGGGUAACAGUUUGGGAACAGGUGGUCCCAGGUCGUUUCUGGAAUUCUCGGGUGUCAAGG | 0.696
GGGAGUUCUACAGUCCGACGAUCCCUCAAGUCCUGUGCUACACAUCGUAUGUACCGAAUCGGAAAAAGGAGGAGGAAAGUAUUAUGUUACGCCGUUCGGAUCUGCACUUCCAGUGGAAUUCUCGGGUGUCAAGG | 0.216
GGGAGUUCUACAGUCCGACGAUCUCUGAGCAAUUGAAUGCCCUAAACAAGGCUUACCAUGACCUUUGUGAUGGUUCUGCAAAUCAGCUUCAGCAGCUUCAGAGCCAGUUGGCUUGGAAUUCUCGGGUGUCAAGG | -2.41

Study 4 — method: protein-binding microarray; molecule type: double-stranded DNA, one strand shown; medium: in vitro; concentration: 940 nM top; setting: 60-bp whole probe; together with: salmon DNA 0.4 mg/ml; reference: random background probes; direction: higher = stronger binding; shared flanks, not repeated: GCCTAGCAC … GTCTTGATTCGCTTGACGCTGCTG
Target: Interferon regulatory factor 5, full length, phosphomimetic (IRF5, Homo sapiens, UniProt Q13568-2, residues 1-514, S451D/S453D/S456D/S462D)
Oligonucleotide | fitted relative affinity [z-score]
ACTAGCTTCCATTTTCTGAAGTGCTAG | 0.903
CTCTGCTTGTATCTGGGTTCGTGCTAG | 0.259
GACGAACTGAGTATCCAGACGTGCTAG | -0.504
GACGGAATGGACTATCGGGACGTGCTA | -0.444
GAGGGTATCGGTTTCGGGACGTGCTAG | 6.67
TTAGGTTTCCACTTTCGGTTAGTGCTA | 4.78
GATGAACTGGGGTTTCGAGACGTGCTA | 1.65
TCAAGTTTTCATTTTCTACTGTGCTAG | 1.41
TTAGTTATCGGGACTGGATTAGTGCTA | 0.353
TTAGGACTGCTTTTCCTTGAGTGCTAG | -0.233
TTAGAACTGAGTATGGATTAGTGCTAG | -0.101
AGGTTCTACTCCGTTAGTTGGTGCTAG | 0.174
TCATATATTTGCTTCAGACTGTGCTAG | 0.68
GACGGTCGCGGACTGGGGACGTGCTAG | -0.369
TTAGAACTGAGGCTGGATTAGTGCTAG | -0.611
TTTTTTCTTTTATTAGTGACGTGCTAG | 1.63
TTAGGACGGGGGTATCGGTTAGTGCTA | 8.16
TTAGCACTGCTTATCCTTTAGTGCTAG | -0.0215
TGAGGTATCCTACTGCTTTAGTGCTAG | -0.239

Excerpt of the above (study 3):
Oligonucleotide | log2 enrichment
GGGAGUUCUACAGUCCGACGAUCAGUCCUGUGCUACACAUCGUAUGUACCGAAUCGGCCCCCGGCCCCCGGGCCCCCGGGAAAGUAUUAUGUUACGCCGUUCGGAUCUGCACUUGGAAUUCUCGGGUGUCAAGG | -0.367
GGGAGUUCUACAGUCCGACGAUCUGGCCCUGUUGGCAUGCGGGGAGGAAGAGGUGGCCUCAUGGAUCGUGGUGGUCCCGGUGGAAUGUUCAGAGGUGGCCGUGGUGGAGACAGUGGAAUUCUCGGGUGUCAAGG | -0.0981
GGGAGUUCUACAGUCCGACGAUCACCAUGCAGGUGGGCAUCUUUGGGAAGUGGGGCAAGGGGGGGAUAGGGAGGGGGGUAACAGUUUGGGAACAGGUGGUCCCAGGUCGUUUCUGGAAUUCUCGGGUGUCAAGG | 0.696
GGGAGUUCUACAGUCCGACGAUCCCUCAAGUCCUGUGCUACACAUCGUAUGUACCGAAUCGGAAAAAGGAGGAGGAAAGUAUUAUGUUACGCCGUUCGGAUCUGCACUUCCAGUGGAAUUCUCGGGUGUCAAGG | 0.216
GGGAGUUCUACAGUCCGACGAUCUCUGAGCAAUUGAAUGCCCUAAACAAGGCUUACCAUGACCUUUGUGAUGGUUCUGCAAAUCAGCUUCAGCAGCUUCAGAGCCAGUUGGCUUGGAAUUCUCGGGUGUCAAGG | -2.41
